Measured values gathered from unrelated publications.
Each line is one published result; not all experiments were run side by side. ± marks the error that the study gave.
S1PR3: Sphingosine 1-phosphate receptor 3 (S1PR3, Homo sapiens, UniProt Q99500)
Chain of UniProt Q99500 (whole entry, looked up): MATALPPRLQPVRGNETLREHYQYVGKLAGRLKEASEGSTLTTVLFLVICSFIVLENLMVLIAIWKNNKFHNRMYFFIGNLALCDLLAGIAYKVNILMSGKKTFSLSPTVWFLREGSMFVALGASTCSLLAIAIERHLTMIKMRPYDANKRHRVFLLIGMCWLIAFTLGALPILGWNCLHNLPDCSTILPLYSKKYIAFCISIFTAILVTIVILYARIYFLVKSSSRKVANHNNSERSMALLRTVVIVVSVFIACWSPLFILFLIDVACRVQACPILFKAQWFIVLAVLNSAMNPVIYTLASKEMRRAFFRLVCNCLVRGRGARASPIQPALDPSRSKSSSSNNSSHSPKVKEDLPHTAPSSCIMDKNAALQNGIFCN
FPR2: N-formyl peptide receptor 2 (FPR2, Homo sapiens, UniProt P25090)
Chain of UniProt P25090 (whole entry, looked up): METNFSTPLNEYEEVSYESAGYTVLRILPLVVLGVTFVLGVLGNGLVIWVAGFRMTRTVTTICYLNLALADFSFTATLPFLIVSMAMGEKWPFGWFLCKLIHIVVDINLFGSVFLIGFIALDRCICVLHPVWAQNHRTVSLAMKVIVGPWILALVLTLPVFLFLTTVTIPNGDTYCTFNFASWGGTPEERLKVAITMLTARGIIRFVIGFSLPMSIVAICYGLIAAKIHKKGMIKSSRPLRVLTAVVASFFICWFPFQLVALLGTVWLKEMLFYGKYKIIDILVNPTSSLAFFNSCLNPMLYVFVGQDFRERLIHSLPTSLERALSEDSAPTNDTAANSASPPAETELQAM
Chain of UniProt P41594 (whole entry, looked up): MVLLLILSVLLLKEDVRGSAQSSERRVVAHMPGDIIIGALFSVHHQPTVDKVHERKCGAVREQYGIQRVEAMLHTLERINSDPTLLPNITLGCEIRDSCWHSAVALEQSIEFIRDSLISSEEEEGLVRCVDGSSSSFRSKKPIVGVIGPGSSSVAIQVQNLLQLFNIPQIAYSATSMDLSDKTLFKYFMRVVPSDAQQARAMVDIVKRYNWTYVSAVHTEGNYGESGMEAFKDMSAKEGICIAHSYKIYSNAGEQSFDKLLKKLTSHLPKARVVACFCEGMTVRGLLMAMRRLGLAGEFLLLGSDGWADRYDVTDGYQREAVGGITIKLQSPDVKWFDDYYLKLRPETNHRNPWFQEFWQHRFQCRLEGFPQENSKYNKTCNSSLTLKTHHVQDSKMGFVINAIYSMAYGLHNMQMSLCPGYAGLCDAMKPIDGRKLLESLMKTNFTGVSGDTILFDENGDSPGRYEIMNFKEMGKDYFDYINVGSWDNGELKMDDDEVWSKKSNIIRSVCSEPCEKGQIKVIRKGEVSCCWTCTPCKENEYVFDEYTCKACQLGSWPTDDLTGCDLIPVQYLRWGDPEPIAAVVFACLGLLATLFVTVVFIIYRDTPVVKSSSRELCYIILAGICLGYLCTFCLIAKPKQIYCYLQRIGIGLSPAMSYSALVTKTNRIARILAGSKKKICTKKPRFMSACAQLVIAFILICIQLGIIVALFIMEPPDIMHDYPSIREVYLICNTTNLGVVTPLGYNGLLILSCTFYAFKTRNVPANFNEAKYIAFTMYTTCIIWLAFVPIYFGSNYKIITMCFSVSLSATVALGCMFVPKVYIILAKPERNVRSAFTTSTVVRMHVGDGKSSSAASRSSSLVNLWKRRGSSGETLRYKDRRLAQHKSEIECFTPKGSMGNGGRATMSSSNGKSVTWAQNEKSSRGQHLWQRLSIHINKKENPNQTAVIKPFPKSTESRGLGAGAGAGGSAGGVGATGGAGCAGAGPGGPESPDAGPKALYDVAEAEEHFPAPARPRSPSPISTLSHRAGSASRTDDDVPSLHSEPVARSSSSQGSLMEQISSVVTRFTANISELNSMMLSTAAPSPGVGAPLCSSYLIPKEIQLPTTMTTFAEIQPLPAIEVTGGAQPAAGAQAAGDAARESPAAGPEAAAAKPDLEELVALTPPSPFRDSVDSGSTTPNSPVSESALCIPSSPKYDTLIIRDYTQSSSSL
Chain of UniProt Q13255 (whole entry, looked up): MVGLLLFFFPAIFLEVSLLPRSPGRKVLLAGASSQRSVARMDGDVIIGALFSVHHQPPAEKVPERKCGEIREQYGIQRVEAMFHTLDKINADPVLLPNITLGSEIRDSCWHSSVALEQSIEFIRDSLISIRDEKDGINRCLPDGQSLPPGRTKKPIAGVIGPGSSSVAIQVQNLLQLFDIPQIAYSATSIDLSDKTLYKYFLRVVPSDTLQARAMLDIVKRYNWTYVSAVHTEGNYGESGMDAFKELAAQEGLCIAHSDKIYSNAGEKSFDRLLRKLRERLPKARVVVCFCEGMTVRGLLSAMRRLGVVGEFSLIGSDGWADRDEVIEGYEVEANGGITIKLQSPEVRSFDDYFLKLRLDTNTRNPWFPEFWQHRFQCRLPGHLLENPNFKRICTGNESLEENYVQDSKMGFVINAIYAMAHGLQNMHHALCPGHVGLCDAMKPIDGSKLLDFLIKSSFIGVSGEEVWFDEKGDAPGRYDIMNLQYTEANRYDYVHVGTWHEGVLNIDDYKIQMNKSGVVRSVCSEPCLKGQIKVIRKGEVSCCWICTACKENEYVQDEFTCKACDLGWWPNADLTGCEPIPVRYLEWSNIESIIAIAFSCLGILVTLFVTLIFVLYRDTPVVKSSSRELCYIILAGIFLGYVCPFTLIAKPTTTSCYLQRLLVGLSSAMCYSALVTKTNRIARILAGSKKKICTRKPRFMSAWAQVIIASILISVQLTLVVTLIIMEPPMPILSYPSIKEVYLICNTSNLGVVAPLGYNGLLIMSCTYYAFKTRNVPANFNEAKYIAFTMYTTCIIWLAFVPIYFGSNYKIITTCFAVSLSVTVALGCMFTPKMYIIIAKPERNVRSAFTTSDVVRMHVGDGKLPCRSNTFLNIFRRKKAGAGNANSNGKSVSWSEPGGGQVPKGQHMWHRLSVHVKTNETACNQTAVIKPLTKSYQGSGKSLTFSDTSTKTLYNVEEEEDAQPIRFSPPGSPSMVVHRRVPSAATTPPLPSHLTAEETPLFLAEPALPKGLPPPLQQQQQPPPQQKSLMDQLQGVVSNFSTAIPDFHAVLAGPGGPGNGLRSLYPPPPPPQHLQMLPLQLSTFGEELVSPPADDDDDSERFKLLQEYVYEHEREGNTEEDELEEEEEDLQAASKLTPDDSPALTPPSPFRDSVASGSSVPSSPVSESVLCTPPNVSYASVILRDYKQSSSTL
Chain of UniProt Q9WUP0 (whole entry, unmodified, looked up): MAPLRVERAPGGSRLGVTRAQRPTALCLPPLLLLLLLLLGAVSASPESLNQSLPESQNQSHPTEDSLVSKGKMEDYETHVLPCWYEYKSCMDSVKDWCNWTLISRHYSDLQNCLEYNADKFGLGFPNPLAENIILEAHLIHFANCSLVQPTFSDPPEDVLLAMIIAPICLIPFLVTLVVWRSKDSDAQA
Chain of UniProt Q9R1W5 (whole entry, unmodified, looked up): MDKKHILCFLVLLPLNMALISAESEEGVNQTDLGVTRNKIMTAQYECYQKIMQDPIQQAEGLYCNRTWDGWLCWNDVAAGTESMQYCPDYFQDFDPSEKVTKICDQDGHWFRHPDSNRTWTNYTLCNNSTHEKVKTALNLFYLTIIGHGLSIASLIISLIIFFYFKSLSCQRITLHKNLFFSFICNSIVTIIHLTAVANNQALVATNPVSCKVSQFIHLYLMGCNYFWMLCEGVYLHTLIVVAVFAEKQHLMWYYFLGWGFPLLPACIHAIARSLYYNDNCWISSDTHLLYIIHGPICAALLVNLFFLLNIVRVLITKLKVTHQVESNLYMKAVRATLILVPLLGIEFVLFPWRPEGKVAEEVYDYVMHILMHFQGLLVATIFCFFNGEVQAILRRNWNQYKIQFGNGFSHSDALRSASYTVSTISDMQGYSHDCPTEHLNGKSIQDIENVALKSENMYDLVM

SMILES = CCCCCCCOc1ccc(CC[C@](N)(CO)COP(=O)(O)O)cc1C(F)(F)F; target = S1PR3; test = calcium signal, agonist; EC50 = > 10000 nM
SMILES = C[N+](C)(CI)CCO; target = TMA lyase; test = TMA production, ex vivo; test system = Proteus mirabilis, wild type; EC50 = 48 nM
SMILES = O=P(O)(O)O[C@@H]1[C@@H](O)[C@H](O)[C@H](O)[C@H](O)[C@H]1OP(=O)(O)O; target = Itpr1 (Rattus norvegicus, UniProt P29994); test = calcium signal, agonist; EC50 = 7590 nM
SMILES = Cc1ccc(Oc2cc(C(=O)NC3CC(F)C3)nc3ccsc23)cn1 (stereo not shown); target = GRM5 (Homo sapiens, UniProt P41594); test = calcium signal, agonist; EC50 = > 30000 nM
SMILES = CC[C@H](C)[C@H](NC(=O)[C@H](CCC(N)=O)NC(=O)[C@H](Cc1c[nH]cn1)NC(=O)[C@H](C)NC(=O)[C@H](CC(C)C)NC(=O)[C@H](CCCCN)NC(=O)[C@H](CCC(N)=O)NC(=O)[C@@H](NC(=O)[C@@H](NC(=O)[C@@H]1CSSC[C@H](NC(=O)CNC(=O)[C@H](Cc2ccccc2)NC(=O)[C@H](CO)NC(=O)[C@H](CCCNC(=N)N)NC(=O)[C@H](CC(C)C)NC(=O)CNC(=O)[C@H](CCC(N)=O)NC(=O)[C@H](Cc2ccccc2)NC(=O)[C@H](CC(N)=O)NC(=O)[C@H](CC(N)=O)NC(=O)[C@H](CCSC)NC(=O)[C@H](CO)NC(=O)[C@H](CCC(N)=O)NC(=O)[C@H](CCCNC(=N)N)NC(=O)[C@@H](N)Cc2ccc(O)cc2)C(=O)N[C@@H](CCCNC(=N)N)C(=O)N[C@@H](Cc2ccccc2)C(=O)NCC(=O)N[C@@H]([C@@H](C)O)C(=O)N1)[C@@H](C)O)C(C)C)C(=O)N[C@@H](Cc1ccc(O)cc1)C(=O)N[C@@H](CCC(N)=O)C(=O)N[C@@H](Cc1ccccc1)C(=O)N[C@H](C(=O)N[C@@H](CC(=O)O)C(=O)N[C@@H](CCCCN)C(=O)N[C@@H](CC(=O)O)C(=O)N[C@@H](CCCCN)C(=O)N[C@@H](CC(=O)O)C(=O)N[C@@H](CC(N)=O)C(=O)N[C@H](C(=O)N[C@@H](C)C(=O)N1CCC[C@H]1C(=O)N[C@@H](CCCNC(=N)N)C(=O)N[C@@H](CO)C(=O)N[C@@H](CCCCN)C(=O)N[C@H](C(=O)N[C@@H](CO)C(=O)N1CCC[C@H]1C(=O)N[C@@H](CCC(N)=O)C(=O)NCC(=O)N[C@@H](Cc1ccc(O)cc1)C(N)=O)[C@@H](C)CC)C(C)C)[C@@H](C)O; target = Calcrl/Ramp2 (Mus musculus, UniProt Q9R1W5+Q9WUP0, P10T); test = cAMP production, agonist; test system = COS-7, transfected; setting = 15 min, 37 °C, together with: IBMX 1 mM; EC50 = 1.58 nM
SMILES = O=C(Cc1ccc([N+](=O)[O-])cc1)N[C@@H](Cc1c[nH]c2ccccc12)C(=O)NCC1(c2ccccn2)CCCCC1; target = FPR2; test = calcium mobilization, agonist; test system = HL-60 cells expressing FPR2; EC50 = 17400 ± 5200 nM
SMILES = O=C(Nc1ccc(N2C(=O)c3cccc(Cl)c3C2=O)c(Cl)c1)c1ccccn1; target = GRM1 (Homo sapiens, UniProt Q13255); test = positive allosteric modulator; EC50 = 75 nM
SMILES = CCc1nc(-c2ccc(-c3ccc(CCC(N)(CO)CO)cc3)cc2)co1; target = S1PR3; test = β-arrestin recruitment, agonist; EC50 = 4230 nM
SMILES = CSCC[C@H](NC(=O)CNC(=O)[C@H](CCCCN)NC(=O)[C@@H](N)Cc1c[nH]c2ccccc12)C(=O)N[C@H](C(=O)N[C@H](CCSC)C(N)=O)C(C)C; target = FPR2; test = binding, competitor; test system = RBL; setting = 4 °C, together with: 5 nM WK(FL)YMVm; EC50 = 176 nM
SMILES = C[N+](C)(CCl)CCO; target = TMA lyase; test = TMA production, ex vivo; test system = Proteus mirabilis, wild type; EC50 = 45 nM
